Assay results of several laboratories.
Compare with care: the assays were run in different laboratories.
FABP4: Fatty acid-binding protein, adipocyte (FABP4, Homo sapiens, UniProt P15090)
UniProt P15090, sequence (whole entry, looked up): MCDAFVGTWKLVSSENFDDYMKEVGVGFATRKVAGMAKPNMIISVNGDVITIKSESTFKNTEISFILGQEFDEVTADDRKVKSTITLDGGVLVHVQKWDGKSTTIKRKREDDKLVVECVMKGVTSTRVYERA
TEAD4: Transcriptional enhancer factor TEF-3 (TEAD4, Homo sapiens, UniProt Q15561)
UniProt Q15561, sequence (whole entry, looked up): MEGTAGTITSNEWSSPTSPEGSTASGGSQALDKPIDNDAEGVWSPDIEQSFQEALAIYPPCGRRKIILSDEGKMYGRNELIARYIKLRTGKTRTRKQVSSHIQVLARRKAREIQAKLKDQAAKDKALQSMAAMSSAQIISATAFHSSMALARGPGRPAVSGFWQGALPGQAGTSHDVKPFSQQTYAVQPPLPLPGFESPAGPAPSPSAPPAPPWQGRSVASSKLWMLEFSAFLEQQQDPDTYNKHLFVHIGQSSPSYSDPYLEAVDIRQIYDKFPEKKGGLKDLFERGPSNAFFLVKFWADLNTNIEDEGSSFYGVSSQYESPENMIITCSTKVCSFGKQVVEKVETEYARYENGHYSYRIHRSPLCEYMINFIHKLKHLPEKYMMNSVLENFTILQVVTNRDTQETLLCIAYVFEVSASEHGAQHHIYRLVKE
HLA class I histocompatibility antigen, A alpha chain: HLA class I histocompatibility antigen, A alpha chain (Homo sapiens, UniProt P04439)
UniProt P30939, sequence (whole entry, looked up): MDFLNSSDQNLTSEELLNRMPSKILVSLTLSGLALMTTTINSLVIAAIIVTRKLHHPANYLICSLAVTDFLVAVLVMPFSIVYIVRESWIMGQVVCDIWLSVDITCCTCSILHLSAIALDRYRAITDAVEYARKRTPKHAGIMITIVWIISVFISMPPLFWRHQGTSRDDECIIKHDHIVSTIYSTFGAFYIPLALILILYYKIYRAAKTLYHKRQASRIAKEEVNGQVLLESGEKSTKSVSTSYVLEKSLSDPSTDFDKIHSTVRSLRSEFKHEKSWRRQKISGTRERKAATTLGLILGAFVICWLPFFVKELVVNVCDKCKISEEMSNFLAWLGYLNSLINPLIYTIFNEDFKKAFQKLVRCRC
UniProt P08235, sequence (whole entry, looked up): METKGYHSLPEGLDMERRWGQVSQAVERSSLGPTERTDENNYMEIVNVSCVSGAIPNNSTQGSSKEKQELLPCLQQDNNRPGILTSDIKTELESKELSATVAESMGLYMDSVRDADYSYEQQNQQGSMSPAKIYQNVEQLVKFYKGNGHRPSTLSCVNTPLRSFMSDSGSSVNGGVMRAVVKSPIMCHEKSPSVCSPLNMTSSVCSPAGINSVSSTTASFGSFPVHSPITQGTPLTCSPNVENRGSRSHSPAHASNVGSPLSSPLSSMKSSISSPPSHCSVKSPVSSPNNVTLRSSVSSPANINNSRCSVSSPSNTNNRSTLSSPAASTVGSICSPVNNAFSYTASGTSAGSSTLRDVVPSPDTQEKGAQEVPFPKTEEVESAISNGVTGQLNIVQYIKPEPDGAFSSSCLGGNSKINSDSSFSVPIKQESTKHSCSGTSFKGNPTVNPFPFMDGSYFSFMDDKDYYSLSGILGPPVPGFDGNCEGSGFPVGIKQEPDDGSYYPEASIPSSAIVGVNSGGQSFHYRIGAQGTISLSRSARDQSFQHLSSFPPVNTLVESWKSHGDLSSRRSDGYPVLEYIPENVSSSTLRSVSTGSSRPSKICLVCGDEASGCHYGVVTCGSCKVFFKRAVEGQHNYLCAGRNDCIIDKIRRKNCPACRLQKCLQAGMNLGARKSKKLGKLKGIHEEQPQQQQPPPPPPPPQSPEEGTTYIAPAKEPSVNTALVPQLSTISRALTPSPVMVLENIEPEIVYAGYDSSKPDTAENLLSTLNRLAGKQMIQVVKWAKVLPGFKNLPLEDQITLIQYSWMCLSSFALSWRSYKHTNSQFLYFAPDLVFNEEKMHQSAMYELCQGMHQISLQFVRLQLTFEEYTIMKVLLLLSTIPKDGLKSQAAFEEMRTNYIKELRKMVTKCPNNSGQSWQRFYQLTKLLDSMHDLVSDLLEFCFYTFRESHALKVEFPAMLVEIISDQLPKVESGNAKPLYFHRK
UniProt P41595, sequence (whole entry, looked up): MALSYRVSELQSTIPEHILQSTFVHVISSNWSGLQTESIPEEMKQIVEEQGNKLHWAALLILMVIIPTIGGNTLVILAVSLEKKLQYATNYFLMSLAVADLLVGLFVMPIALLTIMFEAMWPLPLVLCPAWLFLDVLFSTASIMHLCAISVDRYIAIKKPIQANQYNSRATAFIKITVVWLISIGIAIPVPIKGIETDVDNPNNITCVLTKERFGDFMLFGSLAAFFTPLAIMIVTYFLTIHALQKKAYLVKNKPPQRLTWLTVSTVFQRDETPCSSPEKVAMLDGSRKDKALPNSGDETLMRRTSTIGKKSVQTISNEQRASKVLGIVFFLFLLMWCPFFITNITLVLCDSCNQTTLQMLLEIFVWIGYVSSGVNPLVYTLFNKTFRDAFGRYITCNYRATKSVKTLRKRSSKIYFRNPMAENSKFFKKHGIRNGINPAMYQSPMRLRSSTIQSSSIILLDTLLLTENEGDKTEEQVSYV
UniProt P20309, sequence (whole entry, looked up): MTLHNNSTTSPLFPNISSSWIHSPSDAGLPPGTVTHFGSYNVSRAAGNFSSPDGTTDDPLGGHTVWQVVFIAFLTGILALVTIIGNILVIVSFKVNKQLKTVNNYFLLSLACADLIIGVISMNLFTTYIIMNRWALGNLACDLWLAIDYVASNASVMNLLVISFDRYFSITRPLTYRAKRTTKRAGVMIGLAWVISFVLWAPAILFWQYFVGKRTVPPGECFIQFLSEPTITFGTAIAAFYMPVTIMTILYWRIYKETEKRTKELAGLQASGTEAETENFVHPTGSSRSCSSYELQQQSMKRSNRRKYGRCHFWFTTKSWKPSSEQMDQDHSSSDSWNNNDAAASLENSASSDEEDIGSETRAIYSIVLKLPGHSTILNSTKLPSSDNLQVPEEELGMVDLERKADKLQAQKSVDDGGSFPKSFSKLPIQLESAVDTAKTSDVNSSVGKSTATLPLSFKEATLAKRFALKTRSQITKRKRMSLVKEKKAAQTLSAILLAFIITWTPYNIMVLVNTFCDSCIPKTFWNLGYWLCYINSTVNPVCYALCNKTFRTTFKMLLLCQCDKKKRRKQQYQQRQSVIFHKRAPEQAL
UniProt P27338, sequence (whole entry, looked up): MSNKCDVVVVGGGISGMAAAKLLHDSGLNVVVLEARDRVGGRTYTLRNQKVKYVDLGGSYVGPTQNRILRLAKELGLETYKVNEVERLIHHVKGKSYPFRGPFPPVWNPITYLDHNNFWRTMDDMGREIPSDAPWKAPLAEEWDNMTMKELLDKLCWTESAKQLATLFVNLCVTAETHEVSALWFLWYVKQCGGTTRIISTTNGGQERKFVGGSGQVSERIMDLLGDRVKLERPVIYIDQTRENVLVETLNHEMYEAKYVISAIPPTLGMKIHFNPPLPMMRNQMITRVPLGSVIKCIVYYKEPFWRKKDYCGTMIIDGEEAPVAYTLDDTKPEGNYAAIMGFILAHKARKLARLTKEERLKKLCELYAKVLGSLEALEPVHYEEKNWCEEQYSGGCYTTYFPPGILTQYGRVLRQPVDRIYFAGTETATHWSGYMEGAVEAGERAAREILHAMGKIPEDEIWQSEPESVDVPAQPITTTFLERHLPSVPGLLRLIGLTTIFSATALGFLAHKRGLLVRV
UniProt Q96LB1, sequence (whole entry, looked up): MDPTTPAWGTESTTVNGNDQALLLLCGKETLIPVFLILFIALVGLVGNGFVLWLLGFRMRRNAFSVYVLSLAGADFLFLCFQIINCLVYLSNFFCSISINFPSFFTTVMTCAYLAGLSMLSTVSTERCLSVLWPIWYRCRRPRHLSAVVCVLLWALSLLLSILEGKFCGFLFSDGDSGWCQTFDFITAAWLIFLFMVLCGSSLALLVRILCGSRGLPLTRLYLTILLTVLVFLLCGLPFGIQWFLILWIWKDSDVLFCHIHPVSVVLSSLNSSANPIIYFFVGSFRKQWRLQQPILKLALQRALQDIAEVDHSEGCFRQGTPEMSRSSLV
UniProt P49286, sequence (whole entry, looked up): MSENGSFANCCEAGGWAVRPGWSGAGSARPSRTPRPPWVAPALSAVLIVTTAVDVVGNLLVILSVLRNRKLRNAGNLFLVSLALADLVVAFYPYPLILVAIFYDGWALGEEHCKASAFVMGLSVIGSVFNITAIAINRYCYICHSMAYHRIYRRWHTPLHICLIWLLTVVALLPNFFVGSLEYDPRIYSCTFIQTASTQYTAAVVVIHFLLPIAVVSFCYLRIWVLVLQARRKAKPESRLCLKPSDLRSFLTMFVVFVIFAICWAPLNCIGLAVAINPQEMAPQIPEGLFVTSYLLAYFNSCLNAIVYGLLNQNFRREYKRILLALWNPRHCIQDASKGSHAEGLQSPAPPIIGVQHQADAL
UniProt Q16566, sequence (whole entry, looked up): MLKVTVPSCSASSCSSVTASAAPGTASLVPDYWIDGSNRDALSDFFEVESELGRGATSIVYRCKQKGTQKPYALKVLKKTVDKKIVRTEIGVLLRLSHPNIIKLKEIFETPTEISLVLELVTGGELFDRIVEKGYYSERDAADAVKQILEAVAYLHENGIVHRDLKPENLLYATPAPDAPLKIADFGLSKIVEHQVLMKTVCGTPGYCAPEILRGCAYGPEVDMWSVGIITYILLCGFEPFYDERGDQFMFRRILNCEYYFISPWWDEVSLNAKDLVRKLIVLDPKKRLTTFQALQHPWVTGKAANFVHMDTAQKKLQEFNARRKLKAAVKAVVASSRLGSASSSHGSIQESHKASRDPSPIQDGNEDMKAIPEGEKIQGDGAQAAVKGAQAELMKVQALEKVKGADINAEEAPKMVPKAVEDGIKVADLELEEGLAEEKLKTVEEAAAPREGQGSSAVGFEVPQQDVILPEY

SMILES = C[C@]12CC[C@H]3[C@@H](CCC4=CC(=O)CC[C@@]43C)[C@@H]1CC[C@@H]2C(=O)CO; target = NR3C2 (Homo sapiens, UniProt P08235); assay = reporter gene, agonist, luciferase; measurement = EC50; result = 0.3 nM
SMILES = O=C(O)C(F)(F)C(F)(F)C(F)(F)C(F)(F)C(F)(F)C(F)(F)C(F)(F)C(F)(F)C(F)(F)C(F)(F)F; target = FABP4; assay = ligand displacement, fluorescence; measurement = Ki; result = 1090 nM
SMILES = COc1cc2c(cc1OC)CN(CCc1ccc(NC(=O)c3cccc4c(=O)c5cccc(OC)c5[nH]c34)cc1)CC2; target = CHRM3 (Homo sapiens, UniProt P20309); assay = cell-free assay; measurement = Ki; result = 278 nM
SMILES = CSCC[C@H](NC(=O)[C@@H]1CCCN1C(=O)[C@@H](N)Cc1ccc(O)cc1)C(=O)N[C@@H](CCCNC(=N)N)C(=O)N[C@@H](CC(C)C)C(=O)N[C@@H](CCCNC(=N)N)C(=O)N[C@@H](CCCCN)C(=O)N[C@@H](CC(C)C)C(=O)N1CCC[C@H]1C(=O)N[C@@H](C)C(=O)N[C@@H](CO)C(=O)N[C@@H](Cc1ccccc1)C(=O)N[C@@H](Cc1ccccc1)C(=O)N[C@@H](CCCCN)C(=O)N1CCC[C@H]1C(=O)N1CCC[C@H]1C(=O)N[C@@H](CCC(=O)O)C(=O)O; target = TEAD4; assay = binding, SPR; setting = pH 7.4; measurement = Kd; result = 47500 nM
SMILES = CCC(C(=O)Nc1cc(NC2COC2)ccc1C)n1cc(Br)cc2nc(SCc3ccc(F)cc3)nc1-2 (centres unmarked); target = Serine protease 1 (PRSS1, Homo sapiens, UniProt P07477); assay = enzyme activity, inhibitor; measurement = IC50; result = > 100000 nM
SMILES = COc1ccc2cccc(C(CO)CNC(=O)CF)c2c1 (centres unmarked); target = MTNR1B (Homo sapiens, UniProt P49286); assay = GTPγS binding, agonist, radiometric; setting = cell membranes; measurement = EC50; result = 0.794 nM
SMILES = CC[C@H](C)[C@H](NC(=O)[C@H](CCCCN)NC(=O)[C@H](CCC(N)=O)NC(=O)[C@H](CCCNC(=N)N)NC(=O)[C@H](CC(N)=O)NC(=O)[C@H](CO)NC(=O)[C@H](CO)NC(=O)[C@H](Cc1ccccc1)NC(C)=O)C(=O)N[C@@H](CC(C)C)C(=O)N[C@@H](CCC(=O)O)C(=O)N[C@@H](CCCNC(=N)N)C(=O)N[C@H](C(=O)N[C@@H](CCC(=O)O)C(=O)N[C@H](C(=O)N[C@@H](CC(C)C)C(=O)N[C@@H](CC(N)=O)C(=O)N[C@@H](CCC(N)=O)C(=O)N[C@@H](CCC(=O)O)C(=O)N[C@@H](Cc1c[nH]c2ccccc12)C(N)=O)[C@@H](C)CC)[C@@H](C)O; target = MRGPRX2 (Homo sapiens, UniProt Q96LB1); assay = calcium signal, agonist; measurement = EC50; result = > 20000 nM
SMILES = O=C(O)C(F)(F)C(F)(F)C(F)(F)C(F)(F)C(F)(F)F; target = FABP4; assay = ligand displacement, fluorescence; measurement = Ki; result = 86600 nM
SMILES = Cc1ccc2cc(N3CCC4(O)C(=O)c5cc(C)c(C)cc5N=C34)ccc2n1 (centres unmarked); target = Myosin-7 (MYH7, Bos taurus, UniProt Q9BE39); assay = ATPase activity, inhibitor; measurement = Ki; result = > 50000 nM
SMILES = CC(C)C[C@H](NC(=O)[C@H](CCC(N)=O)NC(=O)[C@H](CCCNC(=N)N)NC(=O)[C@H](CO)NC(=O)[C@H](Cc1ccc(O)cc1)NC(=O)[C@H](CC(C)C)NC(=O)[C@@H](N)CCCNC(=N)N)C(=O)N[C@@H](Cc1c[nH]cn1)C(=O)N[C@@H](Cc1ccccc1)C(=O)O; target = HLA class I histocompatibility antigen, A alpha chain; assay = cell-free assay; measurement = IC50; result = 6.1 nM
SMILES = C=C(C)[C@H](CC=C(C)C)Cc1c(O)cc(OC)c2c1O[C@H](c1ccc(O)cc1O)CC2=O; target = MAOB (Homo sapiens, UniProt P27338); assay = enzyme activity, inhibitor; measurement = Ki; result = 12300 nM
SMILES = CC(C)[C@@H](Nc1nc(Cl)nc2c1ncn2[C@H]1[C@H](O)[C@H](O)[C@]2(CN=[N+]=[N-])C[C@H]12)C1CC1; target = HTR2B (Homo sapiens, UniProt P41595); assay = ligand displacement, radioligand; measurement = Ki; result = 380 nM
SMILES = CC[C@H](C)[C@H](NC(=O)[C@@H](N)CCCCN)C(=O)N[C@@H](Cc1ccccc1)C(=O)N1CCC[C@H]1C(=O)N[C@@H](CCCCN)C(=O)N1CCC[C@H]1C(=O)N[C@@H](CC(C)C)C(=O)N[C@@H](Cc1ccc(O)cc1)C(=O)N[C@@H](CCSC)C(=O)O; target = HLA class I histocompatibility antigen, A alpha chain; assay = cell-free assay; measurement = IC50; result = 153 nM
SMILES = [2H]c1c([2H])c([C@]2([2H])CCCN2C(=O)C(C)(C)Oc2ccc3cn[nH]c3c2)c([2H])c([2H])c1C([2H])([2H])[2H]; target = CAMK4 (Homo sapiens, UniProt Q16566); assay = binding, competition with immobilised ligand; setting = 1 µM; measurement = remaining binding; result = 79%
SMILES = CC[C@H](C)[C@H](NC(=O)[C@H](Cc1c[nH]cn1)NC(=O)CNC(=O)[C@H](Cc1ccccc1)NC(=O)[C@H](CC(C)C)NC(=O)[C@@H](N)CCCNC(=N)N)C(=O)N[C@H](C(=O)N[C@@H](CCC(=O)O)C(=O)N[C@@H](Cc1ccc(O)cc1)C(=O)O)[C@@H](C)O; target = HLA class I histocompatibility antigen, A alpha chain; assay = cell-free assay; measurement = IC50; result = 5.1 nM
SMILES = N#Cc1ccc(N2CCN(C(=O)COc3ccc4[nH]cc(CCN)c4c3)CC2)cc1; target = HTR1F (Homo sapiens, UniProt P30939); assay = G protein activation, agonist, BRET; measurement = EC50; result = 1570 nM
SMILES = CSCC[C@H](NC(=O)[C@@H](N)CCCNC(=N)N)C(=O)N[C@@H](Cc1ccccc1)C(=O)N[C@@H](CCCCN)C(=O)N[C@@H](Cc1c[nH]cn1)C(=O)N1CCC[C@H]1C(=O)N[C@@H](CC(C)C)C(=O)N[C@@H](CCC(N)=O)C(=O)N[C@@H](Cc1ccccc1)C(=O)O; target = HLA class I histocompatibility antigen, A alpha chain; assay = cell-free assay; measurement = IC50; result = 21 nM
SMILES = N#C[Se]Cc1cc(=O)oc2cc(O)ccc12; target = CA9 (Homo sapiens, UniProt Q16790); assay = enzyme activity, inhibitor, stopped-flow; measurement = Ki; result = 36.1 nM
SMILES = CC(C)C[C@H](NC(=O)[C@H](CCCCN)NC(=O)[C@H](CCCNC(=N)N)NC(=O)[C@H](CC(C)C)NC(=O)[C@H](CCCNC(=N)N)NC(=O)[C@H](CCCNC(=N)N)NC(=O)[C@@H]1CCCN1C(=O)[C@@H](N)C(C)C)C(=O)N[C@@H](CCCNC(=N)N)C(=O)N[C@@H](C)C(=O)N[C@@H](CO)C(=O)N[C@@H](Cc1ccccc1)C(=O)N[C@@H](Cc1ccccc1)C(=O)N[C@@H](CCCCN)C(=O)N1CCC[C@H]1C(=O)N1CCC[C@H]1C(=O)N[C@@H](CCC(=O)O)C(=O)O; target = TEAD4; assay = binding, SPR; setting = pH 7.4; measurement = Kd; result = 11600 nM
SMILES = CC(C)C[C@H](NC(=O)[C@@H](NC(=O)[C@@H](NC(=O)[C@H](CC(=O)O)NC(=O)[C@H](Cc1ccccc1)NC(=O)[C@H](CCC(N)=O)NC(=O)[C@@H](N)CCCCN)C(C)C)[C@@H](C)O)C(=O)N[C@@H](Cc1ccc(O)cc1)C(=O)N[C@@H](Cc1ccccc1)C(=O)O; target = HLA class I histocompatibility antigen, A alpha chain; assay = cell-free assay; measurement = IC50; result = 112 nM

Excerpt of the above:
SMILES = CC(C)C[C@H](NC(=O)[C@H](CCCCN)NC(=O)[C@H](CCCNC(=N)N)NC(=O)[C@H](CC(C)C)NC(=O)[C@H](CCCNC(=N)N)NC(=O)[C@H](CCCNC(=N)N)NC(=O)[C@@H]1CCCN1C(=O)[C@@H](N)C(C)C)C(=O)N[C@@H](CCCNC(=N)N)C(=O)N[C@@H](C)C(=O)N[C@@H](CO)C(=O)N[C@@H](Cc1ccccc1)C(=O)N[C@@H](Cc1ccccc1)C(=O)N[C@@H](CCCCN)C(=O)N1CCC[C@H]1C(=O)N1CCC[C@H]1C(=O)N[C@@H](CCC(=O)O)C(=O)O; target = TEAD4; assay = binding, SPR; setting = pH 7.4; measurement = Kd; result = 11600 nM
SMILES = CC(C)C[C@H](NC(=O)[C@@H](NC(=O)[C@@H](NC(=O)[C@H](CC(=O)O)NC(=O)[C@H](Cc1ccccc1)NC(=O)[C@H](CCC(N)=O)NC(=O)[C@@H](N)CCCCN)C(C)C)[C@@H](C)O)C(=O)N[C@@H](Cc1ccc(O)cc1)C(=O)N[C@@H](Cc1ccccc1)C(=O)O; target = HLA class I histocompatibility antigen, A alpha chain; assay = cell-free assay; measurement = IC50; result = 112 nM
